Results from different studies.
Protocols differ between the studies behind these lines. Numbers after ± are the reported error.
Organism: Trypanosoma brucei brucei

Structure (SMILES)	test	system	setting	IC50 [µM]
CCCCCCCCCCC[C@@H](O)CC(=O)N[C@@H](CC(C)C)C(=O)N[C@H](CCC(=O)O)C(=O)N[C@H]1C(=O)N[C@H]([C@@H](C)CC)C(=O)N[C@H](CC(C)C)C(=O)N[C@H](CO)C(=O)N[C@@H](CC(C)C)C(=O)N[C@@H](CC(C)C)C(=O)N[C@H](CO)C(=O)N[C@@H](C(C)C)C(=O)O[C@@H]1C	cell growth	bloodstream form	24 or 48 h, 37 °C	6
O=C(Nc1ccc2c(c1)CN(c1ccccc1)C2=O)N1CCN(c2ccc(F)cc2)CC1	parasite growth, resazurin	Squib 427	3 d	> 64
CCOC(=O)C(CC)NC(=O)CN1C(=O)S/C(=C\c2ccc([N+](=O)[O-])cc2)C1=O (stereo not shown)	cell viability	GUTat3.1	72 h	> 66
O=C(Nc1ccc2c(c1)CN(c1ccc(F)c(F)c1)C2=O)N1CCN(c2ccc(Cl)cc2)CC1	parasite growth, resazurin	Squib 427	3 d	44.7
O=[N+]([O-])c1ccc(/C=N/N=C/c2ccc(Br)cc2)s1	parasite growth, CellTiter-Glo	GUTat3.1 bloodstream form	72 h	0.82 ± 0.45
O=C(Nc1ccc2c(c1)CN(c1ccc(Cl)c(Cl)c1)C2=O)N1CCN(c2ccccc2)CC1	parasite growth, resazurin	Squib 427	3 d	27.6
CCC(NC(=O)CN1C(=O)N/C(=C\c2ccc(C)cc2)C1=O)C(=O)OC (stereo not shown)	cell viability	GUTat3.1	72 h	> 64
O=[N+]([O-])c1ccc(/C=N/N=C/c2ccc([N+](=O)[O-])s2)cc1	parasite growth, CellTiter-Glo	GUTat3.1 bloodstream form	72 h	0.91 ± 0.51
CCOC(=O)C(CC)NC(=O)CN1C(=O)S/C(=C\c2ccc(C)cc2)C1=O (stereo not shown)	cell viability	GUTat3.1	72 h	> 59
O=[N+]([O-])c1ccc(/C=N/N=C/c2ccc(Cl)cc2)s1	parasite growth, CellTiter-Glo	GUTat3.1 bloodstream form	72 h	0.84 ± 0.42

Some of these lines once more:
Structure (SMILES)	test	system	setting	IC50 [µM]
CCOC(=O)C(CC)NC(=O)CN1C(=O)S/C(=C\c2ccc([N+](=O)[O-])cc2)C1=O (stereo not shown)	cell viability	GUTat3.1	72 h	> 66
O=C(Nc1ccc2c(c1)CN(c1ccc(Cl)c(Cl)c1)C2=O)N1CCN(c2ccccc2)CC1	parasite growth, resazurin	Squib 427	3 d	27.6
